Assay results pooled from the literature.
EGFR L861Q: Epidermal growth factor receptor (EGFR, Homo sapiens, UniProt P00533, L861Q)
EGFR: Epidermal growth factor receptor (EGFR, Homo sapiens, UniProt P00533)
EGFR L858R: Epidermal growth factor receptor (EGFR, Homo sapiens, UniProt P00533, L858R)

SMILES	target	assay	test system	conditions	scale	quantity	result
[2H]c1cc(C)c(NC(=O)c2cnc(Nc3cc(N4CCCCC4)nc(C)n3)s2)c(Cl)c1	EGFR L861Q			0.01 µM		inhibition	< 30%
O=C(NC1CCC1)c1ccc2nc(-c3cccc(NS(=O)(=O)NCCN4CCCCC4)c3)cn2c1	EGFR L861Q	enzyme activity		10 µM		remaining activity	100%
COc1cc(N2CCN(C)CC2)ccc1Nc1nc(N)n(C(=S)NCc2c(Cl)cccc2Cl)n1	EGFR (Homo sapiens, UniProt P00533, del747-752/P753S)	enzyme activity		10 µM	baseline: control	remaining activity	2.6%
COc1ccc(-c2nn(-c3ccc(S(C)(=O)=O)cc3)cc2C=N/N=c2\[nH]c(-c3ccc([N+](=O)[O-])cc3)cs2)cc1	EGFR	kinase activity, inhibitor		1 µM		inhibition	68.4%
C[C@@H](c1ccc(-n2cnc3c(N)ncnc32)cc1)N1CCc2nn(C)c(Cc3ccccc3)c2C1=O	EGFR L858R	KINOMEscan		0.1 µM	baseline: DMSO control	remaining binding	81%
C=CC(=O)N1CCC(COCC(=O)N2CCN(c3nc(-c4cnc(N)nc4C(F)F)nc(N4CCOC[C@@H]4C)n3)CC2)CC1	EGFR	KINOMEscan		1 µM	baseline: DMSO control	remaining binding	89%
COc1ccc(-c2nn(-c3ccc(S(C)(=O)=O)cc3)cc2/C=N/N=c2\[nH]c(-c3ccc(Br)cc3)cs2)cc1	EGFR L858R	kinase activity, inhibitor		10 µM		inhibition	89%
CC(C)Oc1cc(N2CCN(C)CC2)ccc1Nc1nc(N)n(C(=O)NCc2ccccc2S(=O)(=O)C(C)C)n1	EGFR L858R	enzyme activity		10 µM	baseline: control	remaining activity	26%
CC(C)C[C@H](NC(=O)[C@H](CO)NC(=O)[C@H](CO)NC(=O)CNC(=O)[C@@H]1CCCN1C(=O)[C@H](Cc1ccc(O)cc1)NC(=O)[C@H](CC(C)C)NC(=O)[C@H](CO)NC(=O)[C@H](CS)NC(=O)[C@H](CC(C)C)NC(=O)[C@H](CC(C)C)NC(=O)CCCCCNC(=S)Nc1ccc2c(c1)C(=O)OC21c2ccc(O)cc2Oc2cc(O)ccc21)C(=O)O	EGFR	binding, first site, LigandTracer cell binding	A-431	FITC-labelled, model, binding, one to two		kon	137 M⁻¹ s⁻¹
COc1cc(N2CCN(C)CC2)ccc1Nc1nc(N)n(C(=O)NCc2ccccc2S(=O)(=O)C(C)C)n1	EGFR	enzyme activity		10 µM	baseline: control	remaining activity	10%
C=CC(=O)N1CCC(C(=O)NCC(=O)N2CCN(c3nc(-c4cnc(N)nc4C(F)F)nc(N4CCOCC4)n3)CC2)CC1	EGFR (Homo sapiens, UniProt P00533, L858R/T790M)	KINOMEscan		1 µM		remaining binding	97%
CC(C)Cc1ccc(-c2nn(-c3ccc(S(C)(=O)=O)cc3)cc2/C=N/N=c2\[nH]c(-c3ccc([N+](=O)[O-])cc3)cs2)cc1	EGFR	kinase activity, inhibitor		1 µM		inhibition	64.4%
COc1cc(N2CCN(C)CC2)ccc1Nc1nc(N)n(C(=O)NCc2c(Cl)cccc2Cl)n1	EGFR (Homo sapiens, UniProt P00533, G719S)	enzyme activity		10 µM	baseline: control	remaining activity	22%

Some of these lines once more:
SMILES	target	assay	test system	conditions	scale	quantity	result
COc1ccc(-c2nn(-c3ccc(S(C)(=O)=O)cc3)cc2/C=N/N=c2\[nH]c(-c3ccc(Br)cc3)cs2)cc1	EGFR L858R	kinase activity, inhibitor		10 µM		inhibition	89%
